# Results collected from several papers.
# Parts stem from different laboratories: compare values within a part only. Values joined by “and” are separate records of one study, mostly repeats; a detail may differ.
# UniProt Q9NR20, sequence (whole entry, looked up): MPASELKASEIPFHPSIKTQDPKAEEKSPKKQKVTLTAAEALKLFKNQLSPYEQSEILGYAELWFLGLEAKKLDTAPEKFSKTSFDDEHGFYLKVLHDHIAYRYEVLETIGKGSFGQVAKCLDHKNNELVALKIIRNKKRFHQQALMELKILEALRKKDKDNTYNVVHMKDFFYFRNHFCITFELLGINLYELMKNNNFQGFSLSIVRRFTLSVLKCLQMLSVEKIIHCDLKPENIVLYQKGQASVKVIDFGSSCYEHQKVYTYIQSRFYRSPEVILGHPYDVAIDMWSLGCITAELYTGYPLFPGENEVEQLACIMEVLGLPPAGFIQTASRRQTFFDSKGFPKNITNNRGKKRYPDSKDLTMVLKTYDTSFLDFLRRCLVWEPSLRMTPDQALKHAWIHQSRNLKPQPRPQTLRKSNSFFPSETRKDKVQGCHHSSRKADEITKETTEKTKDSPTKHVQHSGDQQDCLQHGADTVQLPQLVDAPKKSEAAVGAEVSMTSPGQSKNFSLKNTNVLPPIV
# UniProt Q9H2G2, sequence (whole entry, looked up): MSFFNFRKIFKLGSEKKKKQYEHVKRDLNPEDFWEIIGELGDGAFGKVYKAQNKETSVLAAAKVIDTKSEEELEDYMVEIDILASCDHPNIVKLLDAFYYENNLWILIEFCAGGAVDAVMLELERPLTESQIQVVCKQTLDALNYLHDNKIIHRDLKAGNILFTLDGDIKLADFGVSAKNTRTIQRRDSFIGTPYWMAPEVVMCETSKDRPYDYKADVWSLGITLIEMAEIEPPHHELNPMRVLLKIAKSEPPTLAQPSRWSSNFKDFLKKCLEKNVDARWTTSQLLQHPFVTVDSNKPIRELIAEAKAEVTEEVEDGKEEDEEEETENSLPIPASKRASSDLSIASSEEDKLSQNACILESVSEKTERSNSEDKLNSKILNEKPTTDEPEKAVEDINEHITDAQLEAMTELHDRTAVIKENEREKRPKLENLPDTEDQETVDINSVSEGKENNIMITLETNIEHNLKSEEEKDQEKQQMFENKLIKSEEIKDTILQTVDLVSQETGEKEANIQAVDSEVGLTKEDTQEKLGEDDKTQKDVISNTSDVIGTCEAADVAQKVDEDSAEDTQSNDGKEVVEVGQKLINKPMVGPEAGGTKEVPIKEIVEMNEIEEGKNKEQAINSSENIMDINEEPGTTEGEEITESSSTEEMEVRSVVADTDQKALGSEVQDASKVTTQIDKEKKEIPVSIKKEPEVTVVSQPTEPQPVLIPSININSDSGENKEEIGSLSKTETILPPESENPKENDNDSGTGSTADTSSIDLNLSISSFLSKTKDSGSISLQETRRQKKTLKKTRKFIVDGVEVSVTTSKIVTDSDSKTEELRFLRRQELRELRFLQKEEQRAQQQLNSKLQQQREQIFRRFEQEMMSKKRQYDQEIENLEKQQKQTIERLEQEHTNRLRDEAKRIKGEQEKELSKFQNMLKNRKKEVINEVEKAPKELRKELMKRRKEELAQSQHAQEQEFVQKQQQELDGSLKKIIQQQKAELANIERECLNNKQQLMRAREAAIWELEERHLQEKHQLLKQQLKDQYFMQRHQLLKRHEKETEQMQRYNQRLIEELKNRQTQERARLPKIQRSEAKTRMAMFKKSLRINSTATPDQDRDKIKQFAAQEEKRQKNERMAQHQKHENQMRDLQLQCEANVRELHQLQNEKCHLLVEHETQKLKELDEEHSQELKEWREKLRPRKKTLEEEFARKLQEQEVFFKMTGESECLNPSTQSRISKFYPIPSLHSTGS
# UniProt Q8IU85, sequence (whole entry, looked up): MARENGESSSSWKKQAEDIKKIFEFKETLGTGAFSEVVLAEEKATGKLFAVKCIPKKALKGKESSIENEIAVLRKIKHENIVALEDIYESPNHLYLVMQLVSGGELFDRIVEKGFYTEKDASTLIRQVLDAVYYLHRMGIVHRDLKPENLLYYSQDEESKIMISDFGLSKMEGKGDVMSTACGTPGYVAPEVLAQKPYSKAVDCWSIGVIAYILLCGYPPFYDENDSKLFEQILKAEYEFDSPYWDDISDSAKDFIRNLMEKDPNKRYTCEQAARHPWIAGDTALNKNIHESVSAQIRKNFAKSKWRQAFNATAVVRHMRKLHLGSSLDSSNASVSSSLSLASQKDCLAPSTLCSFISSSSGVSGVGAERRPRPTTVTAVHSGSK
# UniProt P41143, sequence (whole entry, looked up): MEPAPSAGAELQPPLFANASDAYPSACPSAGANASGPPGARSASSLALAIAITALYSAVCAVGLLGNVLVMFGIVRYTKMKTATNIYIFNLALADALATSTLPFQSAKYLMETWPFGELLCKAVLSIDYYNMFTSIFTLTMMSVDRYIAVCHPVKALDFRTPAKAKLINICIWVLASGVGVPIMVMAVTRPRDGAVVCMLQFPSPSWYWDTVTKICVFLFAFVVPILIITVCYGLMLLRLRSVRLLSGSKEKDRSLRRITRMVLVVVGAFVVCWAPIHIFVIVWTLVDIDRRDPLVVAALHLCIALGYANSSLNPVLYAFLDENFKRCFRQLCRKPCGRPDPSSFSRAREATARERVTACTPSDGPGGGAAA
# UniProt P53779, sequence (whole entry, looked up): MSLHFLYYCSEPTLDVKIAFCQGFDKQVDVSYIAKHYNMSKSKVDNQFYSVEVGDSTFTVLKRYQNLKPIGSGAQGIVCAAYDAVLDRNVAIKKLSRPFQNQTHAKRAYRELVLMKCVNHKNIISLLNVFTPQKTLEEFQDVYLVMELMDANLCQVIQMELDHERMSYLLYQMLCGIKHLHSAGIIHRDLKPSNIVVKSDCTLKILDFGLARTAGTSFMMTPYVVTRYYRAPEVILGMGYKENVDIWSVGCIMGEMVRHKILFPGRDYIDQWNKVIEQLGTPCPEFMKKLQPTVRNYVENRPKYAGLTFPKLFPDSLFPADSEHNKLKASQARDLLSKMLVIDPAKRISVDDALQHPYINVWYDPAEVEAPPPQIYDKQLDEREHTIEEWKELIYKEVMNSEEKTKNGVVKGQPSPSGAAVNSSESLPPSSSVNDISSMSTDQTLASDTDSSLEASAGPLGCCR
# UniProt P21918, sequence (whole entry, looked up): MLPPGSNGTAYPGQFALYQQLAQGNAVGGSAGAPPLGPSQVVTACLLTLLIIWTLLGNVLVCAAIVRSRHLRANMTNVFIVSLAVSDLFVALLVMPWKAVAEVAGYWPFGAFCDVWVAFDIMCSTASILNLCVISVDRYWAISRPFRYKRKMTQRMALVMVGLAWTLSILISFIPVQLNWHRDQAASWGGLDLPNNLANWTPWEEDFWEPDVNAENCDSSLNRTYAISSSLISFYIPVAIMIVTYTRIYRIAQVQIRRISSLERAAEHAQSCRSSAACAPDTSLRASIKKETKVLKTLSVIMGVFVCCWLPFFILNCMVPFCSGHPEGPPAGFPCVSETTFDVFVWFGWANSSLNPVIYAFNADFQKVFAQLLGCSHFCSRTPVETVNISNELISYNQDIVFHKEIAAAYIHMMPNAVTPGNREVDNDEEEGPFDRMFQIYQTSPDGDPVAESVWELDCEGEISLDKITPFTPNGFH
# UniProt P35372, sequence (whole entry, looked up): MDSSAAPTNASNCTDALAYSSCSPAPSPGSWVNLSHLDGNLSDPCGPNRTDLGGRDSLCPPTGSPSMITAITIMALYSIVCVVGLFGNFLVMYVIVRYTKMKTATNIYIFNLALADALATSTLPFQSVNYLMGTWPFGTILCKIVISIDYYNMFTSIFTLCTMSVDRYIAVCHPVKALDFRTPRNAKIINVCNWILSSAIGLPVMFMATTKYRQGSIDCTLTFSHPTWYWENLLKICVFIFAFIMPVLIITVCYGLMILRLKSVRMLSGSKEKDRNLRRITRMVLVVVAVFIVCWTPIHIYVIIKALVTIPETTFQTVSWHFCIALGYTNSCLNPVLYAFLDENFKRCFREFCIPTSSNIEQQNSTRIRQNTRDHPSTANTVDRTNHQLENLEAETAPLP
# UniProt O14965, sequence (whole entry, looked up): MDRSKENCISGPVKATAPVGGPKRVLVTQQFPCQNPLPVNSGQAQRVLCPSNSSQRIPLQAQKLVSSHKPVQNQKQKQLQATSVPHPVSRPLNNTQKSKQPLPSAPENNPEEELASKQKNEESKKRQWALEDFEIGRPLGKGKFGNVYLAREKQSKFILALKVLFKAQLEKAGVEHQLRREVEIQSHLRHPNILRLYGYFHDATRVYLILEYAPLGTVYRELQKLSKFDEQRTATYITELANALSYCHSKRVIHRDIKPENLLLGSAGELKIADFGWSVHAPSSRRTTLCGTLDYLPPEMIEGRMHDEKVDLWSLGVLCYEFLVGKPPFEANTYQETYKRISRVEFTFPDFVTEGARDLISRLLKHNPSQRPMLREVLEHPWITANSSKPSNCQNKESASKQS
# UniProt P31645, sequence (whole entry, looked up): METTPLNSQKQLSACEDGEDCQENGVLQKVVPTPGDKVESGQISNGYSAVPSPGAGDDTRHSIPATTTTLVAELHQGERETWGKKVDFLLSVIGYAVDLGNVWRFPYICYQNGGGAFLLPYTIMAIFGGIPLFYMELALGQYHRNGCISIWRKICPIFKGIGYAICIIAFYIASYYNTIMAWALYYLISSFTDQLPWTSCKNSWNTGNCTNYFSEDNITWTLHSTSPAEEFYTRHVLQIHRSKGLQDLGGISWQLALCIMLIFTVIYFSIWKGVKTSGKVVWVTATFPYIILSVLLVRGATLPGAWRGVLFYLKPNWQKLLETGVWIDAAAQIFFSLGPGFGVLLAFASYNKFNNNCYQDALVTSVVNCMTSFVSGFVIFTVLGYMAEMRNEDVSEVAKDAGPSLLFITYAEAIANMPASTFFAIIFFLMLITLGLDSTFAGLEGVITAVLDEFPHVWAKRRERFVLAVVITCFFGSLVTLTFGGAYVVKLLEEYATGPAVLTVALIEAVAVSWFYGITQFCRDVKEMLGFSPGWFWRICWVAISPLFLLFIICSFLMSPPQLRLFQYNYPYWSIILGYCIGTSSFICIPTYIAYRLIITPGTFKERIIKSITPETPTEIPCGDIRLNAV

# Set 1
# SMILES: COc1ccc2c(c1)/C(=C/c1cnc[nH]1)C(=O)N2
# Effect on: enzyme activity
# Mode: inhibitor
# Concentration: 0.5 µM
# Relative to: control
target,remaining activity
"DYRK4 (Homo sapiens, UniProt Q9NR20)",98.5%
"MAPK10 (Homo sapiens, UniProt P53779)",105%
"ROCK2 (Homo sapiens, UniProt O75116)",87.4%
"CAMK1D (Homo sapiens, UniProt Q8IU85)",98.3%
"NEK9 (Homo sapiens, UniProt Q8TD19)",83.2%
"CAMK1G (Homo sapiens, UniProt Q96NX5)",95.6%
"SLK (Homo sapiens, UniProt Q9H2G2)",81.9%
"Aurora kinase A (AURKA, Homo sapiens, UniProt O14965)",69%
"PRKD1 (Homo sapiens, UniProt Q15139)",47.9%

# Set 2
# Cell line: A-375
# Concentration: 100 µM
# Time: 36 h
Compound,viability
CN1CCc2cc3c(cc2[C@H]1[C@@H]1OC(=O)c2c1ccc1c2OCO1)OCO3,91.3%
COC[C@@H](NC(C)=O)C(=O)NCc1ccccc1,111%
O=c1[nH]c2ccccc2n1C1CCN(CCCC(c2ccc(F)cc2)c2ccc(F)cc2)CC1,1.45%
COc1ccc(C(=O)N2CCCC2=O)cc1,117%
CC(C)C(Br)C(=O)NC(N)=O (centres unmarked),98%
NC(=O)CN1CC(O)CC1=O (centres unmarked),106%
CC(C)(C)NCC(O)c1ccccc1Cl (centres unmarked),87.3%
CC(C)(C)c1cc(C(C)(C)C)c(NC(=O)c2c[nH]c3ccccc3c2=O)cc1O,2.55%
C[C@H]1CC(=O)C[C@@H]2CC[C@H]3[C@@H]4CC[C@H](O)[C@@]4(C)CC[C@@H]3[C@]21C,14.6%
CCC1(c2ccc(N)cc2)CCC(=O)NC1=O (centres unmarked),105%

# Set 3
# SMILES: CNC(=O)c1ccc(-c2cnn3ccc(C(=O)N(C)c4ccc(Cl)c(C(=O)OC)c4)cc23)cc1
# Organism: Cryptosporidium parvum
# Method: time-kill
# Cells: HCT-8
# Strain: nanoluciferase-expressing
# Relative to: DMSO control
setting,luminescence remaining
"0.00914 µM, 48 h",15.3% and 15.1%
"0.00305 µM, 8 h",80.9% and 77.2%
"0.00914 µM, 4 h",111% and 113%
"6.667 µM, 24 h",46.4% and 44.2%
"0.02743 µM, 48 h",9.39% and 11.2%
"6.667 µM, 8 h",96.2% and 113%
"20 µM, 4 h",85.3% and 105%
"0.00914 µM, 8 h",68.9% and 79.2%
"6.667 µM, 0 h",101% and 92% and 117% and 105% and 103% and 102% and 94.1% and 85.9%
"0.00102 µM, 0 h",113% and 97.9% and 85.3% and 106% and 93.1% and 94.5% and 102%
"0.00102 µM, 24 h",68.8% and 109%
"0.02743 µM, 24 h",30.6% and 32.8%

# Set 4
# SMILES: O=C(NCc1ncc(C(F)(F)F)cc1Cl)c1ccc2c(c1)C1(CCS(=O)(=O)CC1)[C@H](C1CC1)N2S(=O)(=O)c1ccc(F)cc1
# Concentration: 10 µM
target,test,inhibition [%]
"OPRD1 (Homo sapiens, UniProt P41143)",ligand displacement,-0.34
"OPRM1 (Homo sapiens, UniProt P35372)",ligand displacement,29.1
"SLC6A4 (Homo sapiens, UniProt P31645)",cell-free assay,-5.4
"DRD5 (Homo sapiens, UniProt P21918)",ligand displacement,19.1

# Excerpt of the above (set 3):
setting,luminescence remaining
"6.667 µM, 0 h",101% and 92% and 117% and 105% and 103% and 102% and 94.1% and 85.9%
"0.00102 µM, 0 h",113% and 97.9% and 85.3% and 106% and 93.1% and 94.5% and 102%
"0.00102 µM, 24 h",68.8% and 109%
"0.02743 µM, 24 h",30.6% and 32.8%
